# Measurements pooled from the literature.
# Every numbered part comes from another study and shows a few of its results, in no order. Values joined by “and” are separate records of one study, mostly repeats; a detail may differ.
# Chain of UniProt Q06418 (whole entry, looked up): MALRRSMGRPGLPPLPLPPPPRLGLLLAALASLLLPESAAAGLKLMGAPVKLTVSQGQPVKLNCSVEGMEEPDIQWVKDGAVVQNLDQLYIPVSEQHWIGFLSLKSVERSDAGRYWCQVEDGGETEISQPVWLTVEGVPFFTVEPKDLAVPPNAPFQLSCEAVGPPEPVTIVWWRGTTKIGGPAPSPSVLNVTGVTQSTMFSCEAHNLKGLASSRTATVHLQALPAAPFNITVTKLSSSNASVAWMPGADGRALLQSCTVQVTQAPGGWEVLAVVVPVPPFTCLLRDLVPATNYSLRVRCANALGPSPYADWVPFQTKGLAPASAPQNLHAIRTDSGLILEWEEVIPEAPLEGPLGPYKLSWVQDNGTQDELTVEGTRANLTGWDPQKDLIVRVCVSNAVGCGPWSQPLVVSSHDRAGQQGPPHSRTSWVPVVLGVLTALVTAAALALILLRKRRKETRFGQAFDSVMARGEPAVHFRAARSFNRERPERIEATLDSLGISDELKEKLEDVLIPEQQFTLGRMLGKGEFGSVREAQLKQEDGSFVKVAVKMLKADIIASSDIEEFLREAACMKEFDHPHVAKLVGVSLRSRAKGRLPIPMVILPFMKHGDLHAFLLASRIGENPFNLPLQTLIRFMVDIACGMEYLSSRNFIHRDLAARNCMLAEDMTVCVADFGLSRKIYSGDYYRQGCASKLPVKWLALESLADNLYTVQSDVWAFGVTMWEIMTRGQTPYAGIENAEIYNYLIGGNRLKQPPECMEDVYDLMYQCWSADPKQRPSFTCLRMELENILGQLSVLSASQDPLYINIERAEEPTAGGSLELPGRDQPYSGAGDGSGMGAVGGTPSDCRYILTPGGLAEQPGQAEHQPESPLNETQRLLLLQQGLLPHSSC

# Sample 1 — method: Incucyte 3D growth; concentration: 30 µM; reading: higher = more growth
# SMILES: CC(C)(C(=O)O)[C@H](NC(=O)Cc1cccc(I)c1)c1ccc2oc(=O)[nH]c2c1
cell line,conditions,spheroid area
A375,372.52 h,1.61e+08 a.u. and 1.71e+08 a.u. and 1.75e+08 a.u. and 1.8e+08 a.u. and 1.89e+08 a.u. and 1.65e+08 a.u.
KP-4,6 h,2.14e+07 a.u. and 1.48e+07 a.u. and 1.55e+07 a.u. and 1.73e+07 a.u. and 1.81e+07 a.u. and 2.19e+07 a.u.
KP-4,204 h,3.63e+07 a.u. and 5.08e+07 a.u. and 3.36e+07 a.u. and 1.76e+07 a.u. and 3.25e+07 a.u. and 3.5e+07 a.u.
A375,234.52 h,1.66e+08 a.u. and 1.7e+08 a.u. and 1.8e+08 a.u. and 1.86e+08 a.u. and 1.58e+08 a.u. and 1.55e+08 a.u.
A375,162.52 h,1.13e+08 a.u. and 1.18e+08 a.u. and 1.17e+08 a.u. and 9.73e+07 a.u.
A375,162 h,9.52e+07 a.u. and 1.03e+08 a.u. and 8.44e+07 a.u. and 9.92e+07 a.u. and 1.16e+08 a.u.

# Sample 2 — action: antagonist
# Target: Beta-1 adrenergic receptor (ADRB1, Homo sapiens, UniProt P08588)
# Chain of UniProt P08588 (whole entry, looked up): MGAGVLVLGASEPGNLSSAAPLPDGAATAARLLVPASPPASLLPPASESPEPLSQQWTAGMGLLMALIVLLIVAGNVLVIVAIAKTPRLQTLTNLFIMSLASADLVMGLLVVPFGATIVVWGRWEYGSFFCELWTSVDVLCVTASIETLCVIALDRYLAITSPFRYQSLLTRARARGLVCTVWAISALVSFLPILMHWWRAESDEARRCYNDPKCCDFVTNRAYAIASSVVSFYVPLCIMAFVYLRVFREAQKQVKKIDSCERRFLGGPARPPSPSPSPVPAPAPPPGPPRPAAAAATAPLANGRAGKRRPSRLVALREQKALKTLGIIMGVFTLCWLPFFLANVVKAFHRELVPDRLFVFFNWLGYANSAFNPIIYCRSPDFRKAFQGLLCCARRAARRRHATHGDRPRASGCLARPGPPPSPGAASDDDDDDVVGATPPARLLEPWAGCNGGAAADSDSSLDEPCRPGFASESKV
SMILES,IC50 [µM]
Cc1ccc(OCC(O)CNc2nc(C)nc3c2c(C)nn3C)c(C)c1 (stereo not shown),≥ 100
CC(C)Oc1ccc(C(=O)N[C@H](CNC(=O)CN(C)C)Cc2ccc(-c3cn4cccc([C@H](C)O)c4n3)cc2)cc1Cl,≥ 100
CN(C)c1cccc(NC(=O)C2=NO[C@@H]3CN(c4cccnc4)C[C@H]23)c1,≥ 100
CC(C)c1ccc(NC(=O)c2cc3c(nc2O)CC(C)(C)CC3=O)cc1,≥ 100
c1ccc2c(-c3cnn4cc(-c5ccc(N6CCNCC6)cc5)cnc34)ccnc2c1,3.98
OC1(c2nc(Nc3cccc(N4CCOCC4)c3)n[nH]2)CCOCC1,≥ 100
Cc1noc(C)c1-c1cnc(Nc2cccc(C(F)(F)F)c2)c2c1CCO2,≥ 100
COc1ccccc1N1CCN(CCCCNC(=O)c2ccc(-c3cscn3)cc2)CC1,≥ 100

# Single results of other studies
# HLA class I histocompatibility antigen, C alpha chain allele C*04:01: HLA class I histocompatibility antigen, C alpha chain, allele C*04:01 (Homo sapiens, UniProt P10321)
Molecule,tested on,assay,test system,conditions,quantity,result
Cn1cncc1[C@](O)(COc1ccc(C#N)cc1-c1ccc(OC(F)(F)F)cc1)c1ccc(C#N)cc1,"Tyrosine-protein kinase receptor TYRO3 (TYRO3, Homo sapiens, UniProt Q06418)","cell-free assay, competition with immobilised ligand",,1 µM,remaining binding,61%
WPILGFFPM,"HLA class I histocompatibility antigen, C alpha chain allele C*04:01",peptide-MHC binding,peptide,concentration not given,binding,inactive
COc1ccc(-c2c(Nc3ccccn3)[nH]c3c(C4=CCCCC4)c(-c4ccccc4)nn3c2=O)cc1,,,"human, plasma","oral, 400 mg once daily",Tmax,24 h
SVQWFRLPR,"HLA class I histocompatibility antigen, C alpha chain allele C*04:01",peptide-MHC binding,peptide,concentration not given,binding,inactive
C[C@@H](Oc1cc(-c2cnn(C3CCNCC3)c2)cnc1N)c1c(Cl)ccc(F)c1Cl,M091-TA,"cell growth, alamarBlue",,48 h,GI50,0.02 µM

# A few entries again (sample 2):
SMILES,IC50 [µM]
COc1ccccc1N1CCN(CCCCNC(=O)c2ccc(-c3cscn3)cc2)CC1,≥ 100
CC(C)Oc1ccc(C(=O)N[C@H](CNC(=O)CN(C)C)Cc2ccc(-c3cn4cccc([C@H](C)O)c4n3)cc2)cc1Cl,≥ 100
